# Published values pooled from the literature.
# Each numbered part is a random draw from the data of one study; scales do not carry over between parts. Values joined by “and” are separate records of one study, mostly repeats; a detail may differ.

# Set 1
# SMILES: CC(C)C[C@@H]1NC(=O)[C@@H](N(C)C(=O)[C@H](CC2CCC2)NC(=O)[C@@H]2C[C@@H](F)CN2C(=O)C2(C(F)(F)F)CC(F)(F)C2)CCCCNC(=O)C2(CC2)NC(=O)[C@H](Cc2cc(Cl)ccc2Cl)N(C)C1=O
# Technique: flow cytometry
cell line,concentration,time,together with,cleaved PARP positive cells
NCI-H82,200 nM,72 h,,3.58% and 4.31% and 5.04%
NCI-H446,60 nM,3 days,Mps1 inhibitor 3 nM,18.6% and 23% and 21.1%
A549,2000 nM,72 h,,1.96% and 5.43% and 4.08%

# Set 2
# Cell line: mouse MPNST tumor cells
# Technique: high-content immunofluorescence imaging
# Item: nuclear SOX9
# Concentration: 10 µM
# Time: 12 h
# Notes: mean of 2 replicates
# Reference: DMSO control
# Reading: higher = more nuclear SOX9
SMILES,nuclear SOX9 intensity
Nc1ccn([C@@H]2O[C@H](CO)[C@@H](O)[C@@H]2O)c(=O)n1,128 % of DMSO and 107 % of DMSO
COc1ccccc1Oc1c(NS(=O)(=O)c2ccc(C(C)(C)C)cc2)nc(-c2ncccn2)nc1OCCO,90.2 % of DMSO and 101 % of DMSO and 113 % of DMSO
CCn1c2ccccc2c2cc(CNC)ccc21,217 % of DMSO
NS(=O)(=O)c1cc2c(cc1Cl)N=C(CSCc1ccccc1)NS2(=O)=O,91.6 % of DMSO
Nc1nc(N)nc(-c2cc(Cl)ccc2Cl)n1,106 % of DMSO and 107 % of DMSO
CN1C(CCl)Nc2cc(Cl)c(S(N)(=O)=O)cc2S1(=O)=O (centres unmarked),89 % of DMSO

# Set 3
# Target: Beta-3 adrenergic receptor (ADRB3, Homo sapiens, UniProt P13945)
# Sequence of UniProt P13945 (whole entry, looked up): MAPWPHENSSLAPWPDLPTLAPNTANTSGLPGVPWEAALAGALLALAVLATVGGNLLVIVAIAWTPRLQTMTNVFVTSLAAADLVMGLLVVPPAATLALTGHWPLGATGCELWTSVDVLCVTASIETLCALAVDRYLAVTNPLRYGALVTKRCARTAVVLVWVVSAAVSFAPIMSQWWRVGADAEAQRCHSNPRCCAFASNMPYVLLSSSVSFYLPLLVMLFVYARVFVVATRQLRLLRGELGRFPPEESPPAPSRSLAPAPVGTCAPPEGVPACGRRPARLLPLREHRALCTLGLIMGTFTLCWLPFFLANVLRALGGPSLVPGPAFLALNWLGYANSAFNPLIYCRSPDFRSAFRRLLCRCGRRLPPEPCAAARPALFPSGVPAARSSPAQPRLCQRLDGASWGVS
# Read-out: ligand displacement
# Concentration: 10 µM
Compound,inhibition [%]
Nc1cnc(N2CCc3cc(S(=O)(=O)Nc4c(F)cc(Cl)cc4F)cc(N4CCCC4=O)c32)nc1,-2.69
c1ccc(C2CCN(c3cnc4c(N5CCOCC5)nccn34)CC2)cc1,2.32
COc1cc(N[C@@H]2CCCC[C@]2(O)C(F)(F)F)ccc1F,34.2
CN(C)C(=O)c1sc2nc(N3CCC(S(C)(=O)=O)CC3)cc(C(F)(F)F)c2c1N,-18.6
O=C1NC(c2ccccn2)Sc2ccccc21 (centres unmarked),32.4
CN(C)c1ncnc(-c2ccc3nc(Nc4cc(CN5CCN(C(=O)CC(F)(F)F)CC5)ccn4)[nH]c3c2)c1Cl,4.42
COc1cc(-c2cn(C3CCc4c(F)cccc4N(CC(F)(F)F)C3=O)nn2)ccc1-n1cnc(C)c1 (centres unmarked),15.7
COCCOc1nc(-c2ccc(Cl)nc2)nc2c1CN(C(=O)c1ncn3ccccc13)CC2,1.51
CN1CCN(C(=O)C(C)(C)c2ccc(C(=O)Nc3cn4cc(-c5cc(C(C)(C)C)cc(C(C)(C)C)c5)ccc4n3)cc2)CC1,78.1
O=C(N[C@H]1CCCCC/C=C\C2C[C@@]2(C(=O)O)NC(=O)[C@@H]2C[C@@H](Oc3ccncc3)CN2C1=O)OC1CCCC1 (some centres unmarked),-9.47
CC(=O)N1CCC(c2ccc(C(=O)NC3=NCCN3)cc2C(F)(F)F)CC1,8.52
CS(=O)(=O)N1CCCC(NC(=O)[C@H](CCC2CCCCC2)NC(=O)c2ccc(CNC(=O)c3cnc4ccccn34)cc2)C1 (some centres unmarked),-12.6
Cc1ncc(-c2cc(Cl)ccc2F)cc1-n1c(=O)n(CC(N)=O)c2ccccc21,9.94
CCOc1ccc(S(=O)(=O)Nc2ccc(Cl)cc2C#Cc2cnc(C(=O)O)cc2OC)c2ncccc12,-35

# Set 4
# SMILES: CC(C)(C(=O)O)[C@H](NC(=O)Cc1cccc(I)c1)c1ccc2oc(=O)[nH]c2c1
# Technique: Incucyte 3D growth
# Concentration: 30 µM
# Reading: higher = more growth
cell line,time,spheroid area
A375,384.52 h,1.89e+08 a.u. and 1.81e+08 a.u. and 1.63e+08 a.u. and 1.58e+08 a.u. and 1.74e+08 a.u.
A375,234 h,1.17e+08 a.u. and 1.35e+08 a.u. and 1.32e+08 a.u. and 1.57e+08 a.u. and 1.38e+08 a.u.
MEL-JUSO,180.52 h,1.51e+07 a.u. and 1.69e+07 a.u. and 1.95e+07 a.u. and 1.7e+07 a.u. and 1.64e+07 a.u. and 2e+07 a.u.
KP-4,12 h,1.19e+07 a.u. and 9.43e+06 a.u. and 1.14e+07 a.u. and 1.15e+07 a.u. and 1.1e+07 a.u. and 1.34e+07 a.u.
IPC-298,90 h,2.62e+07 a.u. and 2.36e+07 a.u. and 2.76e+07 a.u. and 3.03e+07 a.u. and 2.74e+07 a.u. and 3.26e+07 a.u.
KP-4,186 h,2.76e+07 a.u. and 3.22e+07 a.u. and 2.75e+07 a.u. and 3.85e+07 a.u. and 2.67e+07 a.u. and 1.75e+07 a.u.

# For quick reference, copied from above (set 3):
Compound,inhibition [%]
CN(C)c1ncnc(-c2ccc3nc(Nc4cc(CN5CCN(C(=O)CC(F)(F)F)CC5)ccn4)[nH]c3c2)c1Cl,4.42
COc1cc(-c2cn(C3CCc4c(F)cccc4N(CC(F)(F)F)C3=O)nn2)ccc1-n1cnc(C)c1 (centres unmarked),15.7
COCCOc1nc(-c2ccc(Cl)nc2)nc2c1CN(C(=O)c1ncn3ccccc13)CC2,1.51
CN1CCN(C(=O)C(C)(C)c2ccc(C(=O)Nc3cn4cc(-c5cc(C(C)(C)C)cc(C(C)(C)C)c5)ccc4n3)cc2)CC1,78.1
